{"data": "Measurements pooled from the literature", "note": "Parts stem from different laboratories: compare values within a part only. Substitutions count along the parent as printed."}
{"data": "Study 1", "target": "ABI1, truncated, D143A, DHFR fusion (Arabidopsis thaliana)", "technique": "DHFR PCA, deep sequencing", "sample": "yeast", "notes": "methotrexate growth selection, single substitutions", "together with": "(+)-ABA 0.39 µM", "relative to": "wild-type fitted maximum", "direction": "higher = stronger binding", "starting sequence": "PYL1, truncated, DHFR fusion (Arabidopsis thaliana); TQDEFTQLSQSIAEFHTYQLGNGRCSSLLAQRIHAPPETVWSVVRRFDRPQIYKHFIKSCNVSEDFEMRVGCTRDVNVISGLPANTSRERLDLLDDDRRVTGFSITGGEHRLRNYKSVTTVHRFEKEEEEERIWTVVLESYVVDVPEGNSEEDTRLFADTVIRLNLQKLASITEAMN; partner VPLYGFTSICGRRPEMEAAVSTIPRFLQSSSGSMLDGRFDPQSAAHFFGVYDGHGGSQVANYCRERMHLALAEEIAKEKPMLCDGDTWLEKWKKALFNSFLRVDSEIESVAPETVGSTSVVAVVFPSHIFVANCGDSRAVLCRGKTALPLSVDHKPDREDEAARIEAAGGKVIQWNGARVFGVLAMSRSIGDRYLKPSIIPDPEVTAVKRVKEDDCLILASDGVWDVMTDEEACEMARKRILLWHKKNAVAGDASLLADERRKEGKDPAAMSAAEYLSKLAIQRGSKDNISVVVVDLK"}
{"Substitution": "P50K", "relative binding score [%]": -11}
{"Substitution": "I52K", "relative binding score [%]": 7.76}
{"Substitution": "D75Y", "relative binding score [%]": 43.5}
{"Substitution": "A170H", "relative binding score [%]": -31.4}
{"Substitution": "H55L", "relative binding score [%]": 49.6}
{"Substitution": "T1L", "relative binding score [%]": 48.3}
{"Substitution": "S26H", "relative binding score [%]": 25.2}
{"Substitution": "P36Y", "relative binding score [%]": 5.46}
{"Substitution": "F124R", "relative binding score [%]": -7.37}
{"Substitution": "V136N", "relative binding score [%]": -7.08}
{"Substitution": "E4G", "relative binding score [%]": 12.3}
{"Substitution": "N85V", "relative binding score [%]": 70}
{"Substitution": "C72V", "relative binding score [%]": 51.3}
{"Substitution": "G148Y", "relative binding score [%]": -29.3}
{"data": "Study 2", "target": "OGT, full length, His-tagged (human)", "technique": "phage display, sequencing", "sample": "in vitro", "tested at": "1 µg OGT", "notes": "single substitutions, 15-mer displayed peptide, unchanged parent 5.27", "relative to": "input library", "direction": "higher = stronger binding", "starting sequence": "peptide; GDFPVMFMPKYSIIY"}
{"Substitution": "IDFPVMFMPKYSIIY [G1I]", "fold enrichment": "9.59 fold"}
{"Substitution": "GDFPVMFGPKYSIIY [M8G]", "fold enrichment": "1.17 fold"}
{"Substitution": "GDFPVMFMPKYAIIY [S12A]", "fold enrichment": "6 fold"}
{"Substitution": "GDFPVMFYPKYSIIY [M8Y]", "fold enrichment": "2.29 fold"}
{"Substitution": "GDFPVMFMPKYSIGY [I14G]", "fold enrichment": "0.621 fold"}
{"Substitution": "GDFPVMFMPKYHIIY [S12H]", "fold enrichment": "0.268 fold"}
{"Substitution": "GDFPEMFMPKYSIIY [V5E]", "fold enrichment": "4.55 fold"}
{"Substitution": "GDFPRMFMPKYSIIY [V5R]", "fold enrichment": "1.76 fold"}
{"Substitution": "GDFPVMFMPHYSIIY [K10H]", "fold enrichment": "3.37 fold"}
{"Substitution": "GDFPVPFMPKYSIIY [M6P]", "fold enrichment": "1.58 fold"}
{"Substitution": "GDFPVRFMPKYSIIY [M6R]", "fold enrichment": "4.87 fold"}
{"Substitution": "GDFPVMFMPKYSINY [I14N]", "fold enrichment": "1.5 fold"}
{"Substitution": "GDSPVMFMPKYSIIY [F3S]", "fold enrichment": "4.99 fold"}
{"data": "Study 3", "target": "Prothrombin, mature alpha-thrombin (F2, Homo sapiens, UniProt P00734)", "technique": "aptamer microarray, sandwich", "molecule type": "DNA with 2'F-ANA", "sample": "in vitro", "tested at": "200 nM", "notes": "whole 15-mer aptamer, many near background", "together with": "Cy3 exosite-II aptamer, 400 nM", "direction": "higher = stronger binding", "sequence": "GGTTGGTGTGGTTGG"}
{"Modification": "2'F-ANA at 2 3 4 6 8 11 13 15", "mean fluorescence intensity [a.u.]": 413}
{"Modification": "2'F-ANA at 5 8 9 11 12 13", "mean fluorescence intensity [a.u.]": 128}
{"Modification": "2'F-ANA at 2 4 5 7 8 10 12 13 14 15", "mean fluorescence intensity [a.u.]": 46.5}
{"Modification": "2'F-ANA at 2 3 4 5 8 9 12 13 14", "mean fluorescence intensity [a.u.]": 52.1}
{"Modification": "2'F-ANA at 2 3 4 5 7 12 13 15", "mean fluorescence intensity [a.u.]": 107}
{"Modification": "2'F-ANA at 1 2 6 8 9 10 11 12 15", "mean fluorescence intensity [a.u.]": 61.5}
{"Modification": "2'F-ANA at 1 3 5 12 14 15", "mean fluorescence intensity [a.u.]": 50}
{"Modification": "2'F-ANA at 2 5 6 7 10 12 13 14 15", "mean fluorescence intensity [a.u.]": 45.9}
{"Modification": "2'F-ANA at 1 2 6 7 8 10 11 12", "mean fluorescence intensity [a.u.]": 65.2}
{"Modification": "2'F-ANA at 5 6 9 12 13 14", "mean fluorescence intensity [a.u.]": 45.8}
{"Modification": "2'F-ANA at 1 2 5 8 9 11 15", "mean fluorescence intensity [a.u.]": 121}
{"Modification": "2'F-ANA at 2 3 4 6 7 8 14 15", "mean fluorescence intensity [a.u.]": 452}
{"Modification": "2'F-ANA at 1 2 3 4 5 6 7 10 14", "mean fluorescence intensity [a.u.]": 49.6}
{"Modification": "2'F-ANA at 2 4 5 6 10 12 13 14 15", "mean fluorescence intensity [a.u.]": 50}
{"Modification": "2'F-ANA at 1 3 4 10 11 12 15", "mean fluorescence intensity [a.u.]": 80}
{"Modification": "2'F-ANA at 3 4 5 6 7 9 10 11 12 13 15", "mean fluorescence intensity [a.u.]": 56.3}
{"Modification": "2'F-ANA at 1 2 4 11 13", "mean fluorescence intensity [a.u.]": 78.5}
{"Modification": "2'F-ANA at 5 6 7 8 10 12 14", "mean fluorescence intensity [a.u.]": 71.6}
{"Modification": "2'F-ANA at 1 3 5 6 7 9 11 12", "mean fluorescence intensity [a.u.]": 209}
{"Modification": "2'F-ANA at 6 8 9 11", "mean fluorescence intensity [a.u.]": 421}
{"Modification": "2'F-ANA at 1 3 4 6 7 10 12 13 15", "mean fluorescence intensity [a.u.]": 66.6}
{"Modification": "2'F-ANA at 2 7 9 10 12 13", "mean fluorescence intensity [a.u.]": 155}
{"Modification": "2'F-ANA at 1 2 4 7 12 13 15", "mean fluorescence intensity [a.u.]": 215}
{"data": "Other studies, line by line"}
{"Substance": "PhoQ, residues 284 288 289 292 302 303 SMYGEC", "target": "PhoP, residues 12 14 15 18 19 AGCRL (Escherichia coli, UniProt P23836)", "test": "Sort-seq, measured: YFP reporter", "test system": "E. coli", "conditions": "PhoQ-PhoP variant library, together with: 10 µM Mg2+", "scale": "relative to: high Mg2+ state, higher = stronger signaling", "measurement": "fold induction", "result": 6.51}
